# Assay results pooled from the literature.
# Parts stem from different laboratories: compare values within a part only. Positions count from the first letter of the parent shown.

# Block 1
# Target: CCND1, cyclin fold, Cln2 fusion (human)
# Technique: yeast growth competition, sequencing
# Sample: yeast
# Notes: weak parent motif
# Relative to: not given
# Reading: higher = stronger binding
# Parent: RB1 docking peptide (human); PKPLKKLRFDIEG
Variant,normalised enrichment score
I11Y,0.115
R8C,-0.245
P3S,0.332
P1T,0.0144
L4Y,0.636
F9T,-0.28
G13F,-0.187
K6W,0.194
K5R,-0.14

# Block 2
# Target: RNA binding protein fox-1 homolog 2, RRM domain, GST-SBP tag (RBFOX2, Homo sapiens, UniProt O43251-10, residues 100-194)
# Technique: RNA Bind-n-Seq
# Form: RNA
# Sample: in vitro
# Tested at: 365 nM
# Notes: natural RNA segment, single round, ends assumed
# Relative to: no-protein control
# Reading: higher = stronger binding
# Shared flanks, not repeated: GGGAGUUCUACAGUCCGACGAUC … UGGAAUUCUCGGGUGCCAA
# Target sequence (chain): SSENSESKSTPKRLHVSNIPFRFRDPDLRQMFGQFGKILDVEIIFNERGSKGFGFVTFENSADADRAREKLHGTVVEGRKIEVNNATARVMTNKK
Sequence,RBNS enrichment (R)
GGUGGGGAGACCCAUUUGUAAUCUAUAUGGCAGUUCCAUCUGGGUUUUAAGUUUAGAUUUCACCGUGUCUUAGUGCUUCAUUCUAUUGGUUUAUUGGAACAUGUAAUAAA,0.492
CUGAAACUCAUGGGCUUACACAGAGGGAGCCAGGCAUGUUCUUCAGCCCAUCCAUCUCUUGGUUGCUAGUGAUUUUCAUAGAGUAGAUUGACUAGUAAGGUGUUGUAAGU,2.26
UGUCAGCAGAGUCUCCAAGCCCCACGAACCCUGAGGAGUGGAGUCAUACGCGAAGGCCAUAUGGCCAUCGUGUCAGCAGAGAGAGUCUCUGUACACAGCCCCGUGAACCC,0.225
AUAGAUAUGCACCUUUUUCUACAUGUAUGGCCUUUACUUACUACACAGCAAGUAGGCCUCAAAGUAAUCUUCCUCUUUCCCAUCAAUCAUCUUCUGCCAAGCAUUCAGGC,2.91
UCCCUCUUCGGGGGCAGACCCCACACUCCGGGCAGGUGCUCAAACCUGACGGUAAACUCUUCCCUCUUCGGGGGCAGACCCCAUACCCCGGGGCGGGUGCUUAGGCUUUC,0.278
AUCCCUUACCAUCCAAGGGGCACUCCCUUGGUUGGAUUUUCUAUGACAGCACAGGGGACAGGUGGCACACCAUGAGAGGUCUGCCCAGGGUGGGAGCAGUGUCACUGUGC,0.351
ACUCUCAAGAUCCAUUAGCUUUUAAAAUUUCUGCCUCUGAGUCUGAAGCCCAGGUGGACAGCCAUUUUCCAUCACCCCUUUCCAGCUGUAAUCUUUCAUCCCCCUCCCCC,1.24
CCCCCUUUGAUACAAAUCGGUUGGAUUUUCAUAUGCUUCAAAGGCUUGAUCUGUGAGUCACUCUCCAGUUUGGGACAUGGGUCUGUCUGUGGCUUUGAGAAAAGGUACUU,0.546

# Block 3
# Target: Interferon regulatory factor 3, full length, phosphomimetic (IRF3, Homo sapiens, UniProt Q14653, residues 1-427, S386D/S396D/S398D/S402D/T404D/S405D)
# Sequence of UniProt Q14653 (whole entry, unmodified, looked up): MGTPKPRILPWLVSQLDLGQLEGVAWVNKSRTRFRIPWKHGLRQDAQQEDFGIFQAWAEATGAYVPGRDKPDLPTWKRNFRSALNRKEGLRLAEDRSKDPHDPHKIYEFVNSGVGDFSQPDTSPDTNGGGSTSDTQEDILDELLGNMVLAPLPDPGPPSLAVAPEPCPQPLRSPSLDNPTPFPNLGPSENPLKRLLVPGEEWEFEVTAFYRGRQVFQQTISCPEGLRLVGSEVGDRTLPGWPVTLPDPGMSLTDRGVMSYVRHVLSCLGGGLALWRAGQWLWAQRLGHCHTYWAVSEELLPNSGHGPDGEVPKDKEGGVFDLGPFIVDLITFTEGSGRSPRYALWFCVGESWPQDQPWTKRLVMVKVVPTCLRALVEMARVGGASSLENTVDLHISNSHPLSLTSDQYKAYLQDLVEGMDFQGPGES
# Technique: protein-binding microarray
# Form: double-stranded DNA, one strand shown
# Sample: in vitro
# Tested at: 2540 nM top
# Notes: 60-bp whole probe
# With: salmon DNA 0.4 mg/ml
# Relative to: random background probes
# Reading: higher = stronger binding
# Shared flanks, not repeated: GCCTAGCAC … GTCTTGATTCGCTTGACGCTGCTG
Sequence,fitted relative affinity [z-score]
GACGGTATCGGCACTGGGGACGTGCTA,0.719
TTAGACTCCAGTTTCGATTAGTGCTAG,3.1
TCAGTTCCTTATTTAAGACTGTGCTAG,3.32
GACGGTCTGCTTCTCCTGACGTGCTAG,0.0423
TTTTTTTTTTCCCTGAAAAAGTGCTAG,2.66
TTAGGACCGGGTCTCGGTTAGTGCTAG,-0.214
GACGGCTTCCTTATCCTGACGTGCTAG,0.54
GACGGTCTCCTTTTCCTAACGTGCTAG,5.35
TTAGGACTGCGGTTTCGGTTAGTGCTA,3.71
TAAGATTTCAGTCTCGATTAGTGCTAG,2.31
GACGGTAACGACTTTCGGGACGTGCTA,0.404
TTAGGACTGGACTAGCGGTTAGTGCTA,-0.505
GACGAATCCAGTTTCGAGACGTGCTAG,2.59
ATCATTTTAGTTTTCATTATGTGCTAG,3.31
GACGGACTGGGGGATCGGGACGTGCTA,-0.561

# Single results of other studies
Molecule,target,assay,system,conditions,how to read,quantity,result
"PhoQ, residues 284 288 289 292 302 303 TNSAEL","PhoP, residues 12 14 15 18 19 QYFSL (Escherichia coli, UniProt P23836)","Sort-seq, item: YFP reporter",E. coli,"PhoQ-PhoP variant library, with: 10 µM Mg2+","relative to: high Mg2+ state, higher = stronger signaling",fold induction,10.3

# Excerpt of the above (block 1):
Variant,normalised enrichment score
P1T,0.0144
L4Y,0.636
P3S,0.332
